Assay results pooled from the literature.
A part holds a random share of what one study measured. Changes are numbered by the printed parent chain.

Block 1
Target: Interferon regulatory factor 7, full length, phosphomimetic (IRF7, Homo sapiens, UniProt Q92985, residues 1-503, S101K/S471D/S472D/S475D/S476D/S477D/S483D/S484D/S487D)
Technique: protein-binding microarray
Molecule type: double-stranded DNA, one strand shown
Matrix: in vitro
Concentration: 250 nM
Setting: 60-bp whole probe
Added: salmon DNA 0.4 mg/ml
Reference: random background probes
Direction: higher = stronger binding
All sequences stand within: GCCTAGCAC … GTCTTGATTCGCTTGACGCTGCTG
Target sequence (chain): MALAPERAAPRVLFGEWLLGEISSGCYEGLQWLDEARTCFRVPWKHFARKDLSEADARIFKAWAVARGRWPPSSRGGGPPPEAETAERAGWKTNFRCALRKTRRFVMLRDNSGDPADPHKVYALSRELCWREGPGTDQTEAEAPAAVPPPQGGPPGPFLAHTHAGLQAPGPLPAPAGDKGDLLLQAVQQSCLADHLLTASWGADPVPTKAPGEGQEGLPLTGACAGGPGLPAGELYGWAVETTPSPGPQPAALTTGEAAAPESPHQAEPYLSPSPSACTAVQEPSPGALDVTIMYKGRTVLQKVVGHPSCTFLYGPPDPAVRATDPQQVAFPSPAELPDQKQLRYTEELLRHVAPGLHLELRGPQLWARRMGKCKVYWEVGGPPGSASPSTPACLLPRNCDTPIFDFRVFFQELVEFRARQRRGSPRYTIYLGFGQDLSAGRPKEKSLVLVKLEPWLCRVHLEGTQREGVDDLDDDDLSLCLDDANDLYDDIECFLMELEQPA
Oligonucleotide	log fluorescence
TTAGGTATCGACTTGCGGTTAGTGCTA	2.07 z-score
GCGCCTGTAGCCCCTCCAGGGTGCTAG	-0.614 z-score
TTAGGTGTCGGGTTTCGGTTAGTGCTA	4.88 z-score
TTAGATATCGGGACTGGCTTAGTGCTA	-0.478 z-score
GTCGATATCAGTTTCGAGACGTGCTAG	4.91 z-score
TTAAATATCGGGACTGGATTAGTGCTA	0.143 z-score
TCAATTTACATTTTAGTACTGTGCTAG	0.678 z-score
GACGATCTCAGTTACGAGACGTGCTAG	0.0335 z-score
GACGCTATCAGTATCGAGACGTGCTAG	0.0289 z-score
GACGATATCAGACTGGAGGCGTGCTAG	-0.396 z-score
GACGGTATCGGGTTTCCGGACGTGCTA	2.05 z-score
GACGGACTGGGTCTCGGGGCGTGCTAG	-0.53 z-score
TTAGGTTCCGGATTCGGTTAGTGCTAG	6.54 z-score
ATGTTTGTCACTCTCAGAATGTGCTAG	0.736 z-score

Block 2
Target: Eukaryotic initiation factor 4A-I (EIF4A1, Homo sapiens, UniProt P60842, residues 1-406, full length assumed)
Sequence of UniProt P60842 (whole entry, looked up): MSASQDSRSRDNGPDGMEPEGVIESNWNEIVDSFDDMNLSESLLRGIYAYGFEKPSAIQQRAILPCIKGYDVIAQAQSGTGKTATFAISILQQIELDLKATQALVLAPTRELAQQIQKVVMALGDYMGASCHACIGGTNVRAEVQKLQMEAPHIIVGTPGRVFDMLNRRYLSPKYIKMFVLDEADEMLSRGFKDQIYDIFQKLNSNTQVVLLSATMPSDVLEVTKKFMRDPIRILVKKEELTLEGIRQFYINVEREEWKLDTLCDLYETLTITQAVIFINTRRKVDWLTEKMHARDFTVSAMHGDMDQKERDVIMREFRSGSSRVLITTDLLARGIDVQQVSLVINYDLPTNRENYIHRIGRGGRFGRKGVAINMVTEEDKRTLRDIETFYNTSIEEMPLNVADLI
Technique: RNA Bind-n-Seq
Molecule type: RNA
Matrix: in vitro
Concentration: 15 pmol
Setting: 4-mer, random 30-nt RNA, single round
Added: 3 µM DMDA-PatA, 2 mM AMP-PNP
Reference: input library
Direction: higher = stronger binding
Oligonucleotide	4-mer enrichment [fold]
GGAC	0.874
CUAU	0.974
CUAG	1.47
CAUG	0.985
CUGC	0.611
ACAA	0.695
CUUG	0.849
GCUU	0.862
AUGG	1.35
GGCC	0.651
UGAA	1.18

Block 3
Target: Histone acetyltransferase KAT6A, winged helix 1, GST fusion (KAT6A, Homo sapiens, UniProt Q92794, residues 1-85)
Technique: protein binding microarray
Molecule type: double-stranded DNA, one strand shown
Matrix: in vitro
Concentration: not given
Setting: 8-mer, flanks averaged, mean of 2 arrays, mostly near background
Reference: not given
Direction: higher = stronger binding
Residues (chain): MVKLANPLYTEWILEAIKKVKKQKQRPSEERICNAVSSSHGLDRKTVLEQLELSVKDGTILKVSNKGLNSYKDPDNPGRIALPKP
Oligonucleotide	E-score
ACAGCAAC	-0.162
GCCTCGAA	-0.0496
AACGCCAA	-0.124
CGAGTATC	0.0854
CTAAATTA	0.00362
GACGCGCC	0.363
GTGTTGAA	-0.122
CTCCCGTA	0.267
CCGTAAAG	0.278
TCTAGGAA	-0.253
GGTACTAA	-0.0192
AGCGGGTC	0.289
AGAAGTAA	-0.179
ATAGGCGC	0.229
AGATACTC	-0.0396
AGTGCTAC	-0.225
CCTTCCAA	-0.187
CAGATCAC	0.0166
ATCCCGTG	0.27
ATGGTACC	0.0477
CCGAACGG	0.299

Block 4
Target: Sal-like protein 4, full length isoform B (SALL4, Homo sapiens, UniProt Q9UJQ4-2, residues 1-616)
Technique: universal PBM
Molecule type: double-stranded DNA, one strand shown
Matrix: in vitro
Concentration: not given
Setting: 8-mer, flanks averaged, mean of replicates
Direction: higher = stronger binding
Oligonucleotide	E-score
CTCTCTGC	-0.249
GTCACCGA	-0.218
CCCACAAG	-0.213
TCACTGCA	0.17
CTCTGAGC	-0.295
AAGAAATA	0.357
GAATCCTA	0.192
GCTCCCCA	-0.265
GGCGTTTA	0.0617
AGGCCTGA	-0.123
AGATTCGC	0.0374
ACCCAGCC	-0.306
AGACTCGG	-0.34
GCTATTAC	0.153
GGCGCGGA	-0.334
CATCCTTA	0.0668
AAGAGCTG	-0.193
AGACCAAC	-0.146
ATTCCTAA	0.0722
GATAGCCA	-0.216
CATCGGTC	-0.212
CCCTTGAA	-0.0403
AACTCATT	0.0688
CCAGAGGG	-0.332

Block 5
Target: Fragile X messenger ribonucleoprotein 1, C-terminal low-complexity region (Fmr1, Mus musculus, UniProt P35922)
Technique: RNA Bind-n-Seq
Molecule type: RNA
Matrix: in vitro
Concentration: 200 nM
Setting: whole 134-nt RNA, ends assumed
Added: 150 mM KCl
Reference: input library
Direction: higher = stronger binding
Oligonucleotide	log2 enrichment
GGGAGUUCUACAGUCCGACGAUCCACAGACAACACGCACCCACACAGACACAGAGGGAAGGGGUUGGGAUGGGGACAGGGUGCACAGCAGGGCGGGGUAGGACCCCAGCGCCUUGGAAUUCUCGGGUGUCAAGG	1.12
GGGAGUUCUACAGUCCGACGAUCUAACUUUAGAGGAGGAUCUGAUGAAUAUGGCAGUGGACGUGGAUUUGGGGAUGGCUAUAAUGGGUAUGGAGGAGGACCUGGAGGUGGCAAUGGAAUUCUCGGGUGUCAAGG	0.307
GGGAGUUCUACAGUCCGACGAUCUAACUUUAGAGGAGGAUCUGAUGGAUAUGGCAGUGGACGUGGAUUUGGGGAUGGCUAUAACGGGUAUGGAGGAGGACCUGGAGGUGGCAAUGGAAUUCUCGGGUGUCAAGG	0.398
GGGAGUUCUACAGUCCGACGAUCCCUGUGCUACACAUCGUAUGUACCGAAUCGGGAAAAAAAGGAAAAAAAGGGGAAAAAAAGGAAAGUAUUAUGUUACGCCGUUCGGAUCUGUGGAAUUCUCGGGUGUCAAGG	-0.964
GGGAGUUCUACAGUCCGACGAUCAAGUCCUGUGCUACACAUCGUAUGUACCGAAUCGGAAAAAGGUUUUUUUGGAAAGGAAAGUAUUAUGUUACGCCGUUCGGAUCUGCACUUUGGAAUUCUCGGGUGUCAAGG	-1.43
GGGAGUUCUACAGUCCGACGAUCACCAUGCAGGUGGGCAUCUUUGGGAAGUGGGGCAAGGGGGGGAUAGGCAGGGGGGUAACACUUUGGGAACAGGUGGUCCCAGGUCGUUUCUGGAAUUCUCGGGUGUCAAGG	0.571
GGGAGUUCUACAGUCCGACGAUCGCAGGAAGUAAAAACAAAUGGAAAUGCUUCGGAUAGUGGCAGGGGUGGGGGUUGCUAAGGAAAGAGUGGGAUGGGAGUGGGUAAAGAGUUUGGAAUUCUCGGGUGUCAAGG	0.227
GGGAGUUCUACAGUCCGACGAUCUGCUUCAGACCAAGCGGAGCUCCCGGAGGCAAAGCCUGGAGCUGCAGAAGUGUGAAGAGAUCCUCCACAAGAUCGUGAAGUACCGCUUCAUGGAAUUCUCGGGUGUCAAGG	-2.41
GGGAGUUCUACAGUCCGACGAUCGUCCUGUGCUACACAUCGUAUGUACCGAAUCAAAUUUUUUUAAACCCAAAUUUUUAAAAAAGUAUUAUGUUACGCCGUUCGGAUCUGCACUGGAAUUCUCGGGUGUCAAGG	-0.458

Block 6
Target: ABI1, truncated, D143A, DHFR fusion (Arabidopsis thaliana)
Technique: DHFR PCA, deep sequencing
Matrix: yeast
Setting: methotrexate growth selection, single substitutions
Added: (+)-ABA 1.4 µM
Reference: wild-type fitted maximum
Direction: higher = stronger binding
Starting sequence: PYL1, truncated, DHFR fusion (Arabidopsis thaliana); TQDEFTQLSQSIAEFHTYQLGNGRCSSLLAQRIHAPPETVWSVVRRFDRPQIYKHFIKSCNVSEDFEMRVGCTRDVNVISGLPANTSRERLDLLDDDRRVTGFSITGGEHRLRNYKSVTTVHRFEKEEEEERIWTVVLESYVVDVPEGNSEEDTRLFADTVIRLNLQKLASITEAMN
Change	relative binding score [%]
S150N	39.9
L156A	52.5
S11W	55.5
V100Q	-2.5
S59E	57.5
I162T	13.7
L82R	-0.697
D48P	1.72
Q19R	58.3
T135C	37.4
V62G	-2.95
Q2K	58.9
E38W	25.7
G21M	39.1
V145D	-16.9
D3T	42.5
L156R	12.1
N177M	56
R74K	1.58
V44M	7.41

Some of these lines once more (block 4):
Oligonucleotide	E-score
CCCACAAG	-0.213
TCACTGCA	0.17
CTCTGAGC	-0.295
AAGAAATA	0.357
GAATCCTA	0.192
GCTCCCCA	-0.265
GGCGTTTA	0.0617
AGGCCTGA	-0.123
AGATTCGC	0.0374
